Measured values from different studies.
Every numbered part comes from another study and shows a few of its results, in no order.
UniProt P43403, sequence (whole entry, looked up): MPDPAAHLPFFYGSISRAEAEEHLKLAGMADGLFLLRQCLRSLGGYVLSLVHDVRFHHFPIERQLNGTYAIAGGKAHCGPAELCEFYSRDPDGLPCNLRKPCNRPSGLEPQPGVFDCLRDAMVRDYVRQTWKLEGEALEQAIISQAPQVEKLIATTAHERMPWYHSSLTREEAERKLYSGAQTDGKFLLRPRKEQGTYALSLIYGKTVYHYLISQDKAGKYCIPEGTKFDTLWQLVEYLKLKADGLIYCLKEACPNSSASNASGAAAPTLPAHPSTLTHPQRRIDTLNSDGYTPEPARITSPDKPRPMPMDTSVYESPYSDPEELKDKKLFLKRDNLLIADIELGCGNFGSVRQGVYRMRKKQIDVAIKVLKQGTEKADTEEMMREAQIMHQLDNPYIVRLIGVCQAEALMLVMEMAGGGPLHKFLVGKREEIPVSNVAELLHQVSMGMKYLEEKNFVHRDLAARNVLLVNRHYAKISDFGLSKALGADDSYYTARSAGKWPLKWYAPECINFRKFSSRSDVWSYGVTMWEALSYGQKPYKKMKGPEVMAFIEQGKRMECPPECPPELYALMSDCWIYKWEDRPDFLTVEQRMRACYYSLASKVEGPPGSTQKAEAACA
UniProt Q02156, sequence (whole entry, looked up): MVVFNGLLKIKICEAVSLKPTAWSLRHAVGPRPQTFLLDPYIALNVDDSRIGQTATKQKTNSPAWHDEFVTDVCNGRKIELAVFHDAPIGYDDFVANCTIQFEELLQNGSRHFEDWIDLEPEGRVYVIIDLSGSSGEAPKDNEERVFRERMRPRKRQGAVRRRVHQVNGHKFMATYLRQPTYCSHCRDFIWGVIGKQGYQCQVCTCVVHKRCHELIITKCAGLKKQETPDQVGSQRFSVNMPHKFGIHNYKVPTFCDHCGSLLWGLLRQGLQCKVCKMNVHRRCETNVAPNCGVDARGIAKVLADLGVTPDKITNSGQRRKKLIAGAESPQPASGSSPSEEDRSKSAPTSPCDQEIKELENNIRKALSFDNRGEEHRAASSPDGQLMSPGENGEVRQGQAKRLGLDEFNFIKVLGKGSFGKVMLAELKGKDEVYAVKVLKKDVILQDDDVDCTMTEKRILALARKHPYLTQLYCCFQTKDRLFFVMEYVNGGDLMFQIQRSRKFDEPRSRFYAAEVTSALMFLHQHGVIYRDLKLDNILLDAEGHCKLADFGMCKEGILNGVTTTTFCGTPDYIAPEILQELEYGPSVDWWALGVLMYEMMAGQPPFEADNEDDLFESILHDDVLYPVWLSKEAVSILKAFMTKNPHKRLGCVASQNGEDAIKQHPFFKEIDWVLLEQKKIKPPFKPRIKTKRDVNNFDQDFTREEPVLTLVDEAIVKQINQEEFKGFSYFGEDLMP
UniProt Q8IYT8, sequence (whole entry, looked up): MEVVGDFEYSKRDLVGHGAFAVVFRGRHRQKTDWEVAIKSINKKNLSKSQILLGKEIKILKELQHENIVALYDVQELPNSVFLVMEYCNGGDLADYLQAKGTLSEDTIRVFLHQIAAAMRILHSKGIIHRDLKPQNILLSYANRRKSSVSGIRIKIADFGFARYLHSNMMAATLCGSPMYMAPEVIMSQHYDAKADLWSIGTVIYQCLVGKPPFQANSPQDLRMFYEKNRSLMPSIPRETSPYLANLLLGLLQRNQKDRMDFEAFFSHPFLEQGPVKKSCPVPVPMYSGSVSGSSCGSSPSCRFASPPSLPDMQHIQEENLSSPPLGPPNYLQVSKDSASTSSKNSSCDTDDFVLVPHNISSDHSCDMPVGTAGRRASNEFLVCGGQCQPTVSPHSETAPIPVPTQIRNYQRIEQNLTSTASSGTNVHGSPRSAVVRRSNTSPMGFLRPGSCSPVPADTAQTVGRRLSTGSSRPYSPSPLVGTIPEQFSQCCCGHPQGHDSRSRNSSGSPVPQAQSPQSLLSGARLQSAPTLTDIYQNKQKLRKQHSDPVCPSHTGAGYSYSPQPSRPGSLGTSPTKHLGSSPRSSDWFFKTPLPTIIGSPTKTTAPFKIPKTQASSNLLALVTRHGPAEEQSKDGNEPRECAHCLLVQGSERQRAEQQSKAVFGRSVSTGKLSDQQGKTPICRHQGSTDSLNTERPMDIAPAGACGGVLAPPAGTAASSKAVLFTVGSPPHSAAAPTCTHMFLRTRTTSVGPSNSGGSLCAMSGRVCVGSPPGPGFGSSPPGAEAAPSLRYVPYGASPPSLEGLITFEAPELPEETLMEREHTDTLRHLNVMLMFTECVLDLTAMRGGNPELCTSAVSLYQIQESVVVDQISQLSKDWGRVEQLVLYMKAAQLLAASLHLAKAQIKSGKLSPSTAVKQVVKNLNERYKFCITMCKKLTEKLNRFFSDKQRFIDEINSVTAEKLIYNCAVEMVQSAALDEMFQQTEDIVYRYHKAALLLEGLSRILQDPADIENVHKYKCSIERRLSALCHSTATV
UniProt P42685, sequence (whole entry, looked up): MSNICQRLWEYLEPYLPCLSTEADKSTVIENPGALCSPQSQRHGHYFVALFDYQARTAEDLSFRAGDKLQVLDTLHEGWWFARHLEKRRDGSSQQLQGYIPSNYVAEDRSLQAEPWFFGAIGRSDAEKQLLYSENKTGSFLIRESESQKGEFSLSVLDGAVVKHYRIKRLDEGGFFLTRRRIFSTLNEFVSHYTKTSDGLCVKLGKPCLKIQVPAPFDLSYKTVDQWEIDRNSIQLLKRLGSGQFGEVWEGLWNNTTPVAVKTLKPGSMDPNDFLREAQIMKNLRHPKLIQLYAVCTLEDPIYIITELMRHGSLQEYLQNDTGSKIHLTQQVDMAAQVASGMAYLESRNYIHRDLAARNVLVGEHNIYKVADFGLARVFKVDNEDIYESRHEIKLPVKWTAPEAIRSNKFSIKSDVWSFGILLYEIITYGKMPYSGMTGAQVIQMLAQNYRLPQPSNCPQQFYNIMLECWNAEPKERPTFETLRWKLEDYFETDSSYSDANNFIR
UniProt Q6DT37, sequence (whole entry, looked up): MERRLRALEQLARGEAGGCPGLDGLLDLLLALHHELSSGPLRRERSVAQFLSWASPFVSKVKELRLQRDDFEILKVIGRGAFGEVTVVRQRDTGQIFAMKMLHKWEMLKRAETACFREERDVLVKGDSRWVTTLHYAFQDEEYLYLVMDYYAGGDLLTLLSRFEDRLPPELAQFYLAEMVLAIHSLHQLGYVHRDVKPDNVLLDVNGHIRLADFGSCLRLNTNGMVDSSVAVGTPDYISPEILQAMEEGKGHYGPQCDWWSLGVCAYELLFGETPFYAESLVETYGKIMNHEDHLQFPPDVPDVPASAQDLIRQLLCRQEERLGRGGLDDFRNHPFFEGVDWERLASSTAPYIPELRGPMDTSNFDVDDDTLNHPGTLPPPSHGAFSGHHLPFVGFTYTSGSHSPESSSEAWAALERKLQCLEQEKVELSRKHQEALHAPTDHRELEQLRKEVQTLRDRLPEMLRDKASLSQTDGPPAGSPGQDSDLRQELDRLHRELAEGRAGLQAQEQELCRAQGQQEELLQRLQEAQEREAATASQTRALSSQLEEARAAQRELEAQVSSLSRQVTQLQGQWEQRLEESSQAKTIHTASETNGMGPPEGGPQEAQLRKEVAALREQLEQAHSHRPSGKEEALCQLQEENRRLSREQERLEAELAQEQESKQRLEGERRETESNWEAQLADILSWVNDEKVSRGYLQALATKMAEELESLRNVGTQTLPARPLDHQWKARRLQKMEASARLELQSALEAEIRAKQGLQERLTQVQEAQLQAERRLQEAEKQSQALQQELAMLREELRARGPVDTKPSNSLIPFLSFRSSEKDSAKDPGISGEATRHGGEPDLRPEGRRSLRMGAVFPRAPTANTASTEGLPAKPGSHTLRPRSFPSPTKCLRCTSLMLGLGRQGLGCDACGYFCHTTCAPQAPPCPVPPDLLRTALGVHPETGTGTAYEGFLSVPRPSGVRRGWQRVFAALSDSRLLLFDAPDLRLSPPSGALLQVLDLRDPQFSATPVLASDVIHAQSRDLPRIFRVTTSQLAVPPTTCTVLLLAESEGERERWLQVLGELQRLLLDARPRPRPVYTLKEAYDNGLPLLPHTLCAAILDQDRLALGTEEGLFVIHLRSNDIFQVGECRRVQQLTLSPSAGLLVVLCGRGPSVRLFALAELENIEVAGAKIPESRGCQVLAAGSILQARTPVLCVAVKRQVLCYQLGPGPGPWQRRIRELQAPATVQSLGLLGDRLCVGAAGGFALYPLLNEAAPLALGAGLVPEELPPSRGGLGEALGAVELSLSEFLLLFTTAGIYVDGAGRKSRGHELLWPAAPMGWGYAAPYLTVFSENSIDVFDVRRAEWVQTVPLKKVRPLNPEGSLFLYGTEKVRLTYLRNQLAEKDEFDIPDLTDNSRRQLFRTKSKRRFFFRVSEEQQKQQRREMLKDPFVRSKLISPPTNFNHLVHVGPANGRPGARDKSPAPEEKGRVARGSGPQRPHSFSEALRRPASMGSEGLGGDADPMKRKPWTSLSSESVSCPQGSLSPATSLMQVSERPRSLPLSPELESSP

Sample 1
SMILES: COc1ccc2cc(OCC3(C(=O)O)CN(C(=O)c4ccc(F)cc4)C3)ccc2c1
Concentration: 1 µM
target | test | remaining binding [%]
ULK2 (Homo sapiens, UniProt Q8IYT8) | cell-free assay, competition with immobilised ligand | 89
ZAP70 (Homo sapiens, UniProt P43403) | cell-free assay, competition with immobilised ligand | 99
FGR (Homo sapiens, UniProt P09769) | cell-free assay, competition with immobilised ligand | 96
LRRK2 (Homo sapiens, UniProt Q5S007) | cell-free assay, competition with immobilised ligand | 100
FRK (Homo sapiens, UniProt P42685) | cell-free assay, competition with immobilised ligand | 100
PRKCE (Homo sapiens, UniProt Q02156) | cell-free assay, competition with immobilised ligand | 100
CDC42BPG (Homo sapiens, UniProt Q6DT37) | competition binding | 91

Sample 2
Organism: Sarcocystis neurona
Read-out: parasite growth
Concentration: 10 µM
Time: 96 h
Setting: first screen
Relative to: untreated
SMILES | log2 fold change
CC1(C)O[C@@H]2C[C@H]3[C@@H]4C[C@H](F)C5=CC(=O)C=C[C@]5(C)[C@@]4(F)[C@@H](O)C[C@]3(C)[C@]2(C(=O)CO)O1 | -0.38
NC(=O)c1cnccn1 | 0.33
Cc1ncc([N+](=O)[O-])n1CCO | 0.000322
OC[C@H]1O[C@@H](Oc2cc(O)cc(/C=C/c3ccc(O)cc3)c2)[C@H](O)[C@@H](O)[C@@H]1O | 0.29
COc1cc2nc(N(C)CCCNC(=O)C3CCCO3)nc(N)c2cc1OC (stereo not drawn) | -0.12
CCN(CC)CCOc1ccc(C(=C(Cl)c2ccccc2)c2ccccc2)cc1 | -0.22
O=C1NC(=O)C(c2ccccc2)(c2ccccc2)N1 | -0.31

Sample 3
Species: mouse
Matrix: microsomes or S9
Concentration: 2 µM
Time: 0.5 h
SMILES | remaining compound [%]
Oc1ccc(/C=C/c2c3c(cc4c2[C@H](c2cc(O)cc(O)c2)[C@@H](c2ccc(O)cc2)O4)O[C@H](c2ccc(O)cc2)[C@H]3c2cc(O)cc(O)c2)cc1 | 53.5
O=C(Cc1ccc(Cl)s1)NC(CO)c1c(F)cccc1F (stereo not drawn) | 8.92
COc1ccc(-c2nc(-c3nnn4c3COC(c3ccc(C)cc3)C4)no2)cn1 (stereo not drawn) | 32.8
Cn1cnc2c(sc3nc4c(cc32)COC(C)(C)C4)c1=O | 72.6
Cc1ccc(S(=O)(=O)Nc2nc(C)cc(=O)[nH]2)cc1 | 79.3
Nc1nc(N2CCc3ccccc3C2)nc2ccccc12 | 0.092
CCc1ccc(N2C=NS(=O)(=O)c3cccnc32)cc1 | 46.2

Sample 4
Target: Casein kinase I isoform delta (CSNK1D, Homo sapiens, UniProt P48730)
UniProt P48730, sequence (whole entry, looked up): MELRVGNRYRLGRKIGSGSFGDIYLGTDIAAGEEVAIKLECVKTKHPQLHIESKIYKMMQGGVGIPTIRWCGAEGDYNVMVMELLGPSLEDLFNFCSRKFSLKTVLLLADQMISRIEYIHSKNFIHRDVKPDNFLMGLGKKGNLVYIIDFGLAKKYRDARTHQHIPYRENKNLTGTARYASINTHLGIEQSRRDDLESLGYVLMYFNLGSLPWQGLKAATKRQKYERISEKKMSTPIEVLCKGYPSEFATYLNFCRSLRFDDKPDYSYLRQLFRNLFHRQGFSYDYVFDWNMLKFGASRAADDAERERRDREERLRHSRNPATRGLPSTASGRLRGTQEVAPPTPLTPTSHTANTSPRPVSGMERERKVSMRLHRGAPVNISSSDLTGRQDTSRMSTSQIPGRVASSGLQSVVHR
Read-out: enzyme activity
Mode: inhibitor
Concentration: 0.5 µM
Relative to: control
Compound | remaining activity [%]
COc1ccc(OC)c2c(=S)c3ccccc3[nH]c12 | 101
O=C1NC(=O)C(c2cn(CCCO)c3ncccc23)=C1c1cnccn1 | 99.4
O=C1NC(=O)C(c2cn(CCCn3ccnc3)c3ccccc23)=C1Nc1ccccc1 | 102
Cn1sc(=O)n(Cc2ccccc2)c1=O | 100
O=S(=O)(c1cccc2cnccc12)N1CCCNCC1 | 99.7
Nc1[nH]nc2nc3ccccc3nc12 | 94.2
CN(C)c1ccc(C=C2C(=O)Nc3ccccc32)cc1 | 69
Cc1nc(-c2ccccc2)c(-c2ccncc2)o1 | 44
COc1ccc(C(=O)Nc2sc3c(c2C(N)=O)CCCC3)cc1OC | 103
CC(C)[C@H](CO)Nc1nc(Nc2cc(N)cc(Cl)c2)c2ncn(C(C)C)c2n1 | 65.7
N#CC(C#N)=C(N)/C(C#N)=C/c1ccc(O)cc1 | 98.7
Cn1c2ccccc2c2c3c(c4c5ccccc5n(CCC#N)c4c21)CNC3=O | 97.5
Cc1ccc(Nc2nccc(N(C)c3ccc4c(C)n(C)nc4c3)n2)cc1S(N)(=O)=O | 95.4
Cc1cccc(-c2[nH]c(C(C)(C)C)nc2-c2ccc3c(c2)OCO3)n1 | 63.4
O=C(O)c1ccc2c3c1cccc3c(=O)n1c3ccccc3nc21 | 101

For quick reference, copied from above (sample 2):
SMILES | log2 fold change
CC1(C)O[C@@H]2C[C@H]3[C@@H]4C[C@H](F)C5=CC(=O)C=C[C@]5(C)[C@@]4(F)[C@@H](O)C[C@]3(C)[C@]2(C(=O)CO)O1 | -0.38
NC(=O)c1cnccn1 | 0.33
Cc1ncc([N+](=O)[O-])n1CCO | 0.000322
OC[C@H]1O[C@@H](Oc2cc(O)cc(/C=C/c3ccc(O)cc3)c2)[C@H](O)[C@@H](O)[C@@H]1O | 0.29
COc1cc2nc(N(C)CCCNC(=O)C3CCCO3)nc(N)c2cc1OC (stereo not drawn) | -0.12
CCN(CC)CCOc1ccc(C(=C(Cl)c2ccccc2)c2ccccc2)cc1 | -0.22
